Results pooled from the literature.
Protocols differ between the studies behind these lines. Numbers after ± are the reported error. In brackets after ≈: the same amount, converted by molar mass.

Cc1nc2cccc(OCC(C)(C)C(=O)NC(C)C)c2c(N)c1C(=O)O has a Cmax of 317 nM (Sprague-Dawley rat Crl:CD(SD), both sexes, plasma; oral, food admix, 100 mg/kg/day, day 7).
For Cc1[nH]c(=O)c(CNC(=O)c2ccc(C(F)(F)F)o2)c2c1CCCC2, the kinetic solubility was 100 µg/mL (≈ 283 µM) (U-HPLC; 20% DMSO in water).
For Cc1ccc(NC(=O)CSc2nnc(Cn3cnc4c3c(=O)n(C)c(=O)n4C)n2-c2ccccc2)cc1C, the haemolysis was 3.9% (bovine erythrocytes; 1 mg/mL, 30 min, pH 7.4, 37 °C).
COc1ccc(OC)c(-c2oc3c(OC)c(OC)c(OC)cc3c(=O)c2OC)c1 — result for “tissue to peel content ratio”: 2.54% (C57BL/6 mouse, male, small intestine; oral, 1% w/w in diet, 6 weeks, orange peel extract diet; reference: content in orange peel).
CC(/C=C/C=C(\C)C(=O)O)=C\C=C\C=C(C)\C=C\C=C(/C)C(=O)O gave a solubility of < 0.5 µg/mL (shake-flask; simulated gastric fluid; 1 h, pH 1.2, 37 °C).
`colistin methanesulfonate` — result for “total body clearance”: 2.52 ± 1.64 mL/min/kg (one-compartment PK model; rat; i.p., 20 mg/kg colistin base activity).
For Cc1ccc2[nH]c(=O)c(CC(=O)O)c(-c3ccccc3)c2c1, the logP was 1.86 (potentiometric, initial protocol; cation species).
For CCOc1ccc(Cc2cc([C@@H]3S[C@H](CO)[C@@H](O)[C@H](O)[C@H]3O)c(OC)cc2C)cc1, the tissue/plasma ratio was 251 ± 178 (Wistar rat, male, small intestine; oral, dose not given, 1 h; reference: small intestine over plasma concentration).
CNCc1ccc(-c2[nH]c3cc(F)cc4c3c2CCNC4=O)cc1 has a clearance of 317 mL/min (human cancer patients, plasma; intravenous, 18 mg/m2, day 1, added: temozolomide 200).
Cc1cc(C)c(/C=C2\C(=O)Nc3ccccc32)[nH]1 — result for “right ventricular systolic pressure”: 61.9 ± 6.1 mmHg (male Sprague-Dawley rat, hypoxic pulmonary hypertension; subcutaneous, 20 mg/kg, 14 days post-hypoxia, 3 weeks hypoxia).
For CC(C)=CCC[C@](C)(O[C@@H]1O[C@H](CO)[C@@H](O)[C@H](O)[C@H]1O)[C@H]1CC[C@]2(C)[C@@H]1[C@H](O)C[C@@H]1[C@@]3(C)CC[C@H](O)C(C)(C)[C@@H]3[C@@H](O[C@@H]3O[C@H](CO)[C@@H](O)[C@H](O)[C@H]3O)C[C@]12C, the AUC(0-36 h) was 1200 ± 700 ng·h/mL (Sprague Dawley rat, male, plasma; oral, 25 mg/kg, in white ginseng extract).
For O=C(O)c1cccc(CN2CN(C3CCCCC3)C3(CCN(CCCC(=O)c4ccccc4)CC3)C2=O)c1, “subjects below LLOQ” read 50% (human healthy adults, plasma; dose not given, 24 h).
With CCCC[C@H](NC(C)=O)C(=O)N[C@H]1CCC(=O)NC[C@@H](C(=O)N[C@@H](Cc2c[nH]c3ccccc23)C(N)=O)NC(=O)[C@H](CCCNC(=N)N)NC(=O)[C@@H](Cc2ccccc2)NC(=O)[C@H](Cc2c[nH]cn2)NC1=O the Tmax was 1 h (male rat, plasma; subcutaneous, 25 mg/kg/day, multiple doses, once daily).
Cn1c(-c2ccc(C(N)=O)cc2F)nnc1C(C)(C)Oc1c(F)cc(Cl)cc1F: “Cmax range over subjects” 341 to 632 ng/mL (young non-Japanese adults, plasma; oral, 50 mg single dose, day 1, high-dose multiple-dose study).
The Tmax of COc1ccc(NC(=O)N2CCCCN3[C@H](CN(C)C)[C@H](c4ccc(C#Cc5ccccc5)cc4)[C@@H]3C2)cc1 is reported as 8 h (CD-1 mice, brain; oral, 10 mg/kg).
For CN[C@H](CC(C)C)C(=O)N[C@H]1C(=O)N[C@@H](CC(N)=O)C(=O)N[C@H]2C(=O)N[C@H]3C(=O)N[C@H](C(=O)N[C@H](C(=O)O)c4cc(O)cc(O)c4-c4cc3ccc4O)[C@H](O)c3ccc(c(Cl)c3)Oc3cc2cc(c3O[C@@H]2O[C@H](CO)[C@@H](O)[C@H](O)[C@H]2O[C@H]2C[C@](C)(N)[C@H](O)[C@H](C)O2)Oc2ccc(cc2Cl)[C@H]1O, “time above MIC” read 98% (microdialysis; pig, Danish Landrace, subcutaneous adipose tissue; intravenous, 1000 mg over 100 min, 450 min dosing interval, added: 1.0 µg/mL MIC; reference: dosing interval).
COc1cc2c(cc1OC)[C@@H]1Cc3ccc(OC)c(OC)c3CN1CC2 has a measured concentration of 2.01 ± 0.11 ng/mL (rat plasma QC sample; 2 ng/mL nominal, 24 h, low QC level autosampler stability).
CN1CC[C@@H](NC(=O)Nc2ccc(C#N)cc2)C[C@@H]1c1nc2ccccc2[nH]1 gave an AUC(0-inf), unbound of 1040 ± 286 ng·h/mL (moderate hepatic impairment, plasma; oral, 100 mg single dose, fasted, arithmetic mean).
For Cc1cnc(NC(=O)C2=C(O)c3ccccc3S(=O)(=O)N2C)s1, “hepatocyte vacuolization score” read 0 (Sprague-Dawley rat, male, liver; oral, 0.4 mg/kg, 24 h, single low dose; direction not given).
Under “mean residence time”, c1ccc2c(c1)cc1ccc3cccc4ccc2c1c34 is recorded as 2.4 ± 0.01 h (male ApcMin/+ mice, plasma; oral gavage, 100 µg/kg, added: RVT 45 µg/kg).
COc1ccc2cc3[n+](cc2c1OC)CCc1cc2c(cc1-3)OCO2 gave a measured concentration of 0.47 ± 0.02 ng/mL (rat plasma QC sample; 0.5 ng/mL nominal, 24 h, 23 °C, low QC level storage stability).
The particle permeability of COC(=O)N[C@H](C(=O)N[C@@H](Cc1ccccc1)[C@@H](O)CN(Cc1ccc(-c2ccccn2)cc1)NC(=O)[C@@H](NC(=O)OC)C(C)(C)C)C(C)(C)C is reported as 47.7 ± 2.8 ×10⁻⁶ cm/s (modified PAMPA Franz cell; phosphate buffer with HPMCAS; stock 5 mg/mL, 3 h, 37 °C, 193 nm particles, 300 rpm, added: 3% BSA receiver).
For CC(C)C[C@@H]1NC(=O)[C@H](C)NC(=O)[C@H](Cc2ccccc2)N(C)Cc2ccc([nH]2)CNC1=O, the Papp was 7.76 ×10⁻⁶ cm/s (PAMPA; 100 µM, 17 h, pH 6.4).
The dose-normalised Cmax of Cc1ccc(NC(=O)c2ccc(CN3CCN(C)CC3)cc2)cc1Nc1nccc(-c2cncc(-c3oncc3C)c2)n1 is reported as 34.3 ng/mL/mg (Parkinson's disease patients, plasma; oral, 50.0 mg once daily, day 1, 7-day dosing, mean).
CC[C@H](C)[C@H](NC(=O)CNC(=O)[C@H](Cc1ccccc1)NC(=O)[C@H](Cc1ccccc1)NC(=O)[C@H](CCCNC(=N)N)NC(=O)[C@H](CCCNC(=N)N)NC(C)=O)C(=O)N[C@@]1(C)CCCC=CCCC[C@@](C)(C(=O)N[C@@H](CC(C)C)C(=O)N[C@@H](CCCCN)C(=O)N[C@H](C(=O)N[C@@H](CCC(=O)O)C(=O)N[C@@H](CCC(=O)O)C(=O)NCC(=O)N[C@@H](CC(N)=O)C(N)=O)[C@@H](C)O)NC(=O)[C@H](CC(N)=O)NC(=O)[C@H]([C@@H](C)O)NC(=O)[C@H](CC(C)C)NC1=O has a α-helicity of 33.8% (circular dichroism; PBS with 50% trifluoroethanol; 0.3 mg/mL, pH 7.4, 25 °C).
The Cmax of CS(=O)(=O)Nc1ccc(C(=O)O[C@@H](Cc2c(Cl)c[n+]([O-])cc2Cl)c2ccc(OC(F)F)c(OCC3CC3)c2)cc1OCC1CC1 is reported as 6.92 ng/mL (human, plasma; inhaled, 2400 µg twice daily, day 14, multi-dose dry powder inhaler).
With CCCCCCCC(=O)OC[C@H](NC(=O)[C@H](CO)NC(=O)CN)C(=O)N[C@H](C(=O)N[C@@H](CC(C)C)C(=O)N[C@@H](CO)C(=O)N1CCC[C@H]1C(=O)N[C@@H](CCC(=O)O)C(=O)N[C@@H](Cc1c[nH]cn1)C(=O)N[C@@H](CCC(N)=O)C(=O)N[C@@H](CCCNC(=N)N)C(=O)N[C@H](C(=O)N[C@@H](CCC(N)=O)C(=O)N[C@@H](CCC(N)=O)C(=O)N[C@@H](CCCNC(=N)N)C(=O)N[C@@H](CCCCN)C(=O)N[C@@H](CCC(=O)O)C(=O)N[C@@H](CO)C(=O)N[C@@H](CCCCN)C(=O)N[C@@H](CCCCN)C(=O)N1CCC[C@H]1C(=O)N1CCC[C@H]1C(=O)N[C@@H](C)C(=O)N[C@@H](CCCCN)C(=O)N[C@@H](CC(C)C)C(=O)N[C@@H](CCC(N)=O)C(=O)N1CCC[C@H]1C(=O)N[C@@H](CCCNC(=N)N)C(=O)O)C(C)C)[C@@H](c1ccccc1)c1c[nH]c2ccccc12 the HPLC retention was 40.4 %B (RP-HPLC Jupiter Proteo; acetonitrile/water TFA gradient).
CCCC[C@@H]1NC(=O)[C@@H](NC(=O)[C@H](CCC(=O)O)NC(=O)CNC(=O)CN2CCN(CC(=O)O)CCN(CC(=O)O)CCN(CC(=O)O)CC2)CCCCNC(=O)C[C@@H](C(N)=O)NC(=O)[C@H](C(C)C)NC(=O)[C@@H]2CCCN2C(=O)[C@H](CCCNC(=N)N)NC(=O)CNC(=O)[C@H](Cc2c[nH]c3ccccc23)NC(=O)[C@H](CCCNC(=N)N)NC(=O)[C@@H](Cc2ccccc2)NC(=O)[C@H](Cc2c[nH]cn2)NC(=O)[C@H](CCC(=O)O)NC1=O [indium-111 labelled] has a tissue uptake of 0.01 ± 0.01 %ID/g (C57 mice, B16/F10 lung metastatic melanoma, brain; intravenous, 0.037 MBq, 4 h).
With CC[C@H](C)[C@H](NC(=O)[C@H](Cc1ccccc1)NC(=O)[C@H](CC(=O)O)NC(=O)[C@H](CCCNC(=N)N)NC(=O)[C@H](C)NC(=O)[C@H](C)NC(=O)[C@H](CC(C)C)NC(=O)[C@H](CC(N)=O)NC(=O)[C@H](CC(=O)O)NC(=O)[C@H](CC(C)C)NC(=O)[C@@H](NC(=O)[C@@H](NC(=O)[C@H](CC(N)=O)NC(=O)[C@H](CCSC)NC(=O)[C@H](CCC(=O)O)NC(=O)[C@H](CC(=O)O)NC(=O)[C@H](CO)NC(=O)[C@H](Cc1ccccc1)NC(=O)[C@H](CO)NC(=O)CNC(=O)[C@H](CC(=O)O)NC(=O)CNC(=O)[C@@H](N)Cc1c[nH]cn1)[C@@H](C)O)[C@@H](C)CC)C(=O)N[C@@H](CC(N)=O)C(=O)N[C@@H](Cc1c[nH]c2ccccc12)C(=O)N[C@@H](CC(C)C)C(=O)N[C@H](C(=O)N[C@@H](CCC(N)=O)C(=O)N[C@H](C(=O)N[C@@H](CCCCN)C(=O)N[C@H](C(=O)N[C@H](C(=O)N[C@@H](CC(=O)O)C(=O)O)[C@@H](C)O)[C@@H](C)CC)[C@@H](C)O)[C@@H](C)CC the AUCss difference was ≤ 20% (Japanese paediatric patients; subcutaneous, 0.05 mg/kg; reference: non-Japanese paediatric patients).
CC(=O)O[C@H]1C(=O)[C@@]2(C)[C@H]([C@H](OC(=O)c3ccccc3)[C@]3(O)C[C@H](OC(=O)[C@H](O)[C@@H](NC(=O)c4ccccc4)c4ccccc4)C(C)=C1C3(C)C)[C@]1(OC(C)=O)CO[C@@H]1C[C@@H]2O has a clearance of 14.5 ± 4.59 L/h/m² (noncompartmental analysis; human, plasma; intravenous, 80 mg/m^2, day 8, DL3 geometric mean, added: onalespib 200 mg/m^2).
For COc1ccc(-c2oc3c(OC)c(OC)cc(O)c3c(=O)c2OC)cc1OC, “tissue to peel content ratio” read 25% (C57BL/6 mouse, male, small intestine; oral, 1% w/w in diet, 6 weeks, orange peel extract diet; reference: content in orange peel).
CC[C@H](C)[C@@H]1NC(=O)[C@H](Cc2ccc(O)cc2)NC(=O)[C@@H](N)CSSC[C@@H](C(=O)N2CCC[C@H]2C(=O)N[C@@H](CC(C)C)C(=O)NCC(N)=O)NC(=O)[C@H](CC(N)=O)NC(=O)[C@H](CCC(N)=O)NC1=O gave a half-life of 0.54 ± 0.152 h (ELISA; male knockout mice, plasma; nasal, 12 µg).
For COc1cc(C(F)(F)F)ccc1OC[C@@H]1[C@H]2CN(Cc3nc4ncccc4n3C)C[C@@H]12, the logP was 3.3.
CNC(=O)c1ccc(-c2cnc3ncc(Cc4ccc5ncccc5c4)n3n2)cc1F gave an AUC(0-inf) of 5700 ng·h/mL (human moderate hepatic impairment; oral, 200 mg single dose, adjusted geometric mean).
The AUC(0-7 h) of O=C(CCCCCCC(=O)Nc1ccccc1)NO is reported as 8.52 µM·h (patients, serum; oral, 600 mg, cycle -1, alone).
